Measured values pooled from the literature.
Compare with care: the assays were run in different laboratories. Several values in a cell are separate wells, animals, samples, runs or records.
TEK: Angiopoietin-1 receptor (TEK, Homo sapiens, UniProt Q02763)
Chain of UniProt Q02763 (whole entry, looked up): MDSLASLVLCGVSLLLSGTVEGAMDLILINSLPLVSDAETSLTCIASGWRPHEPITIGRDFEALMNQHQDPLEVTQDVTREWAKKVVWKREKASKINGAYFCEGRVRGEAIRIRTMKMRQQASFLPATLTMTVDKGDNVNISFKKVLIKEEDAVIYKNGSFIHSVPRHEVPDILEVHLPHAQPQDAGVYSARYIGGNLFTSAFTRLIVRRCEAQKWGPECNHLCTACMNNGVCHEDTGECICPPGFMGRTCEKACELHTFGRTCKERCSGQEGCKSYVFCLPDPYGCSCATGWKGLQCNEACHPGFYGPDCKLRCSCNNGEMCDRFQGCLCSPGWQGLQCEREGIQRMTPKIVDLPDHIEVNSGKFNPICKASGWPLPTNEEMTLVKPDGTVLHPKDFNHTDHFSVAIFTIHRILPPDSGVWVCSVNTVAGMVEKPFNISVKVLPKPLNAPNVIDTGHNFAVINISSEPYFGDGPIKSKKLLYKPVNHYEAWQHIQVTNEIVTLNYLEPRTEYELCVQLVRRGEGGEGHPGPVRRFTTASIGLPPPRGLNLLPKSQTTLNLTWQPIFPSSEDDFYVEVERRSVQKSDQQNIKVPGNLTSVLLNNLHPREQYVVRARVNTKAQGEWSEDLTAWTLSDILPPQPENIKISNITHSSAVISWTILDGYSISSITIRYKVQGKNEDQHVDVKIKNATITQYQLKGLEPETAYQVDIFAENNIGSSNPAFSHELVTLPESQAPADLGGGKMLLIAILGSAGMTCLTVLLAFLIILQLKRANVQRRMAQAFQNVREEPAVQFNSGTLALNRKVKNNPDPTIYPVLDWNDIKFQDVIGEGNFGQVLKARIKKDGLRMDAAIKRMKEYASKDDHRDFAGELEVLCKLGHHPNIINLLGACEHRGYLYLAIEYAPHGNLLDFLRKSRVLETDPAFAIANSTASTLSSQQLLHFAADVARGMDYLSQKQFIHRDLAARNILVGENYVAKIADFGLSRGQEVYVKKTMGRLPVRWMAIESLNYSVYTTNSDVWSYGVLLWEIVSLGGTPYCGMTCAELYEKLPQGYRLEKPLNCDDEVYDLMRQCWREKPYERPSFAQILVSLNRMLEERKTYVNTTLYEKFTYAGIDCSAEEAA
DPP9: Dipeptidyl peptidase 9 (DPP9, Homo sapiens, UniProt Q86TI2)
Chain of UniProt Q86TI2 (whole entry, looked up): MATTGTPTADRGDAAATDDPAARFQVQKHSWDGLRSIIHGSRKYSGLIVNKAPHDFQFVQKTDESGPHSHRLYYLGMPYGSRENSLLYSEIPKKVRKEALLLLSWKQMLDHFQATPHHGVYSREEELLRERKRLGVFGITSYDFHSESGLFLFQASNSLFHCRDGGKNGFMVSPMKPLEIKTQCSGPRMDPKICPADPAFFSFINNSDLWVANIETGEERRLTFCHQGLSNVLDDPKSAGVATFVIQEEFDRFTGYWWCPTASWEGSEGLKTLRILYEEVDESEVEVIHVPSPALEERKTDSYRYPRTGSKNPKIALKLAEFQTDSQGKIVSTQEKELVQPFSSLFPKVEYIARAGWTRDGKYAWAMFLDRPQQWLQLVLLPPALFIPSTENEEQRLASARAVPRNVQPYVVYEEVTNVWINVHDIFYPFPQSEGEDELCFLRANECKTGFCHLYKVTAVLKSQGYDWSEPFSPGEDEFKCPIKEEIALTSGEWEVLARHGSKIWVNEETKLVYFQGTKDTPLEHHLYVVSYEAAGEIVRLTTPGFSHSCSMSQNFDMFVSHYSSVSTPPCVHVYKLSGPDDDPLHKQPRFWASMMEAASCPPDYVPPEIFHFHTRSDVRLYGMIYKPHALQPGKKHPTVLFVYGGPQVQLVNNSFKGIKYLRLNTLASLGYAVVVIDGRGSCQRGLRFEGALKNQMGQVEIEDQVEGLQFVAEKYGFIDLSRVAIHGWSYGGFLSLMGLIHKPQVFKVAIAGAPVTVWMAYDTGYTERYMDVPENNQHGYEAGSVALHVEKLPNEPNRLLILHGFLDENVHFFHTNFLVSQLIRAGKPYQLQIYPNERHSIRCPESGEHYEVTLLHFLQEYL
Chain of UniProt P61073 (whole entry, looked up): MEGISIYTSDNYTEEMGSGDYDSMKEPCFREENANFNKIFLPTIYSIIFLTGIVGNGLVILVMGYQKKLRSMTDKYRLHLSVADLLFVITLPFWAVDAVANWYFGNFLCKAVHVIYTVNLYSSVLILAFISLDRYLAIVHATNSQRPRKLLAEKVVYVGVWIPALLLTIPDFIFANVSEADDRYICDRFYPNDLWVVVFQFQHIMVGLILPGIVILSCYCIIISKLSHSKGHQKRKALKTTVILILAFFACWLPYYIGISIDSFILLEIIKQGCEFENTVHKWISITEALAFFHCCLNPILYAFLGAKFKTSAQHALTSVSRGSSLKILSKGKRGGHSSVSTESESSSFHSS
Chain of UniProt P45983 (whole entry, looked up): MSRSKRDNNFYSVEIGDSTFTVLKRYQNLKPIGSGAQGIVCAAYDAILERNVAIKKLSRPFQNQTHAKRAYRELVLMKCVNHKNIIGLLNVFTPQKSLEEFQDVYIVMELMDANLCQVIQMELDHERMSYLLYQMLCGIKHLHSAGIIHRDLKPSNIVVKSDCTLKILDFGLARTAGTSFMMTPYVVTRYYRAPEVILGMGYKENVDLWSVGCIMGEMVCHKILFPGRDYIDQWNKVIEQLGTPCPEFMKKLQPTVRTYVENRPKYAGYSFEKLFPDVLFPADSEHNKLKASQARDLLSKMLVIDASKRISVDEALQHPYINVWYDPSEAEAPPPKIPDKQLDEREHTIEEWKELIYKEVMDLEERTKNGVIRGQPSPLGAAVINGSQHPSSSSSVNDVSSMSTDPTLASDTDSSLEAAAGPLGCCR
Chain of UniProt Q16539 (whole entry, looked up): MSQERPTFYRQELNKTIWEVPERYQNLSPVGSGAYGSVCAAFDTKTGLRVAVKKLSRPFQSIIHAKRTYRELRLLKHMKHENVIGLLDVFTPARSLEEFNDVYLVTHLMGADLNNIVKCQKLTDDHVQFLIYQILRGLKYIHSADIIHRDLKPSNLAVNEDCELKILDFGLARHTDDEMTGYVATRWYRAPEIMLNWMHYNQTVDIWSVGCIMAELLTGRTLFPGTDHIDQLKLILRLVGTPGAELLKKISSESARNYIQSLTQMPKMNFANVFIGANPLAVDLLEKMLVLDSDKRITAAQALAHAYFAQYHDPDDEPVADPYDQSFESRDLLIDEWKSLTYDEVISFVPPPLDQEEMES
Chain of UniProt Q9HB29 (whole entry, looked up): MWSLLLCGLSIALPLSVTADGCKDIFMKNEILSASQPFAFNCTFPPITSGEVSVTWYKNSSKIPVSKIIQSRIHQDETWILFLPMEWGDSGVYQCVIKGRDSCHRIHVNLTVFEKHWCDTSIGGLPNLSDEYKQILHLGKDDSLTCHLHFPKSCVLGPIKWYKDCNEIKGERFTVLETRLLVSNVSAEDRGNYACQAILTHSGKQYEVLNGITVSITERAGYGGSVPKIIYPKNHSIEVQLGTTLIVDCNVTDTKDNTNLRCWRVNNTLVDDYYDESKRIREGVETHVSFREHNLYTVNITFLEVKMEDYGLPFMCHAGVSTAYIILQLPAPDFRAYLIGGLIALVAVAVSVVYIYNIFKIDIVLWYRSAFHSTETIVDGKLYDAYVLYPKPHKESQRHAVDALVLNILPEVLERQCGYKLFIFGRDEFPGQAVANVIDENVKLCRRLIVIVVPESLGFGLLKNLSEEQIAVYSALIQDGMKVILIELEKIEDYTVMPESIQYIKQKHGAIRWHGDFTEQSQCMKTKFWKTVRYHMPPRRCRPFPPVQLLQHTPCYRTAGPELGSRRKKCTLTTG

The remaining activity of CCS(=O)(=O)c1ncc(N(Cc2ccco2)Cc2ccco2)c(C(=O)Nc2ccccc2C)n1 is reported as -0.89% and -0.69% (C-X-C chemokine receptor type 4 (CXCR4, Homo sapiens, UniProt P61073); arrestin recruitment, antagonist, DiscoverX arrestin; 30 µM; baseline: untreated).
With COc1ccccc1CCN1CNc2c(c(=O)[nH]c(=O)n2-c2cccc(Cl)c2C)C1 the remaining activity was 98% (P2X purinoceptor 7 (Ailuropoda melanoleuca, UniProt G1M6C4); ATP-evoked current, inhibitor, whole-cell patch clamp; HEK293 transfected; 0.03 µM, wild type).
For COC1CN([C@H]2CC[C@H]([C@@]3(C)Oc4c(Cl)cc(C(=O)NCc5c(SC)cc(C)[nH]c5=O)c(C)c4O3)CC2)C1, “log2 fold change” read 1.33 (RNA-seq, refers to: PLEKHA7; human, whole blood; dose not given, 24 h; baseline: pretreatment baseline).
For CO[C@@H]1[C@@H](OC(=O)c2ccc(C)[nH]2)[C@@H](O)[C@H](Oc2ccc3c(O)c(NC(=O)c4c[nH]c(C(=O)Nc5c(O)c6ccc(O[C@@H]7OC(C)(C)[C@H](OC)[C@@H](OC(=O)c8ccc(C)[nH]8)[C@H]7O)c(C)c6oc5=O)c4C)c(=O)oc3c2C)OC1(C)C, the remaining activity was 2% (human CMG helicase; helicase activity; 125 µM, added: ATP 2 mM).
The remaining activity of O=C=[N][Ru-4]123([n]4c5ccc(O)cc5c5c6c(c7cc(F)c[n+]1c7c54)C(=O)NC6=O)[S+]1CC[S+]2CC[S+]3CC1 (stereo not drawn) is reported as 86% (TEK; enzyme activity; 100 nM, human enzyme, added: 10 µM ATP; baseline: untreated).
CCC1(CC)C(=O)N(c2cccc(CN3CCN(Cc4cccc5cccnc45)CC3)c2)C1=O gave a remaining activity of 39% (DPP9; enzyme activity, inhibitor; 5 µM).
The remaining activity of C=CC(=O)N1CCCC(n2c(=O)c3ncccc3n(Cc3ccc(Oc4ccccc4)cc3)c2=O)C1 (stereo not drawn) is reported as 82% (Receptor-type tyrosine-protein kinase FLT3 (FLT3, Homo sapiens, UniProt P36888, D835V); kinase activity; 1 µM).
For COc1ccccc1-c1ccncc1C(=O)Nc1nnc(OCc2ccc(Cl)cc2)s1, the remaining activity was 94% (RecQ-like DNA helicase BLM, residues 636–1298 (BLM, Homo sapiens, UniProt P54132); ATPase activity, ADP-Glo; 0.06 µM, 1 h).
With CC(C)[C@@H]1NC(=O)[C@H](Cc2ccccc2)NC(=O)CSC[C@@H](C(N)=O)NC(=O)[C@H](CCC(=O)O)NC(=O)[C@H](CO)NC(=O)[C@H](Cc2c[nH]c3cccc(Cl)c23)NC(=O)[C@H](C2CCCCC2)NC(=O)[C@H](C(C)C)NC(=O)[C@H](Cc2ccc(O)cc2)NC(=O)[C@H](CC(=O)O)NC(=O)[C@H](Cc2c[nH]c3ccccc23)NC(=O)[C@H](Cc2ccc(N)nc2)NC(=O)[C@H](Cc2c[nH]c3ccc(Cl)cc23)NC(=O)[C@H](CCC(=O)O)NC1=O the remaining activity was 105% (Interleukin-1 receptor-like 2 (IL1RL2, Homo sapiens, UniProt Q9HB29); reporter gene (SEAP), inhibitor, HEK-Blue IL-36R reporter; HEK-Blue IL-36R cells; 0.0017 µM, 6 h, added: IL-36γ 0.3 ng/mL).
For CCC1(CC)C(=O)N(c2cccc(CN3CCc4cc5c(cc4C3)OCO5)c2)C1=O, the remaining activity was 31% (DPP9; enzyme activity, inhibitor; 5 µM).
COC(=O)[C@@]1(C)C=C(C(=O)Nc2cccc(C(=O)Nc3ccc(Nc4nccc(-c5cccnc5)n4)c(C)c3)c2)C(=O)CC1 has a remaining activity of 1.1 (Mitogen-activated protein kinase 14 (MAPK14, Homo sapiens, UniProt Q16539); kinase activity, inhibitor; 0.06097 µM, unit not given; baseline: no inhibitor).
For N#Cc1cnc2sc(C(=O)O)cc2c1N1CCc2[nH]nc(C(=O)N[C@@H](CC(=O)NCCOCCN3CCOCC3)c3cccc(Br)c3)c2C1, the remaining activity was 85.3% (Interleukin-1 receptor type 1 (IL1R1, Homo sapiens, UniProt P14778); IL-8 release, antagonist; A-431; 160 µM, 18 h, added: IL-1β 5 ng/mL; baseline: untreated).
COc1ccc(NC(=O)Nc2ccc3c(c2)C(=O)N(C(C)CO)CC(C)C(CN(C)Cc2ccc4c(c2)OCO4)O3)cc1 (stereo not drawn) gave a remaining activity of 104% (TEK; kinase activity; 0.03 µM; baseline: control).
The remaining activity of CN(Cc1cc(C2CC2)on1)C(=O)c1cccc(-c2ccc3c(c2)CCO3)c1 is reported as 96.6% and 95.4% (Acetyl-CoA synthetase (Cryptococcus neoformans, UniProt J9VFT1); enzyme activity, inhibitor, coupled pyrophosphate; 1.56 µM).
CCC1(CC)C(=O)N(c2cccc(CN3CCN(Cc4ccc5ccc6cccc7ccc4c5c67)CC3)c2)C1=O gave a remaining activity of > 90% (DPP9; enzyme activity, inhibitor; 5 µM).
With C=C1C[C@@]2(C(=O)OC)C=C(C(=O)Nc3cccc(C(=O)Nc4ccc(Nc5nccc(-c6cccnc6)n5)c(C)c4)c3)C(=O)[C@@H]1C2 the remaining activity was 0.997 (Mitogen-activated protein kinase 8 (MAPK8, Homo sapiens, UniProt P45983); kinase activity, inhibitor; 8.363e-05 µM, unit not given, added: 10 mM glutathione; baseline: no inhibitor).
Cc1ncsc1-c1ccc(C(C)NC(=O)C2CC(O)CN2C(=O)C(NC(=O)CCCCCCCCCCN2CCCC(Nc3ncc(Cl)c(Nc4ccccc4S(=O)(=O)C(C)C)n3)C2)C(C)(C)C)cc1 (stereo not drawn) — result for “log2 fold change”: -2.06 (22Rv1; RNA-seq, refers to: SLC5A10 mRNA; concentration not given; baseline: DMSO).
Under “percent of control”, C=CC(=O)Nc1cccc(Cn2ncc3cnc(Nc4cnn(CCOC)c4)nc32)c1 is recorded as 100% (CDC2L2 human; binding, KINOMEscan; 100 nM; lower = stronger binding).

Some of these lines once more:
The remaining activity of CN(Cc1cc(C2CC2)on1)C(=O)c1cccc(-c2ccc3c(c2)CCO3)c1 is reported as 96.6% and 95.4% (Acetyl-CoA synthetase (Cryptococcus neoformans, UniProt J9VFT1); enzyme activity, inhibitor, coupled pyrophosphate; 1.56 µM).
COc1ccc(NC(=O)Nc2ccc3c(c2)C(=O)N(C(C)CO)CC(C)C(CN(C)Cc2ccc4c(c2)OCO4)O3)cc1 (stereo not drawn) gave a remaining activity of 104% (TEK; kinase activity; 0.03 µM; baseline: control).
Under “percent of control”, C=CC(=O)Nc1cccc(Cn2ncc3cnc(Nc4cnn(CCOC)c4)nc32)c1 is recorded as 100% (CDC2L2 human; binding, KINOMEscan; 100 nM; lower = stronger binding).
